Measured values from different studies.
Each numbered part is a random draw from the data of one study; scales do not carry over between parts. Substitutions count along the parent as printed.

Sample 1 — method: RNA Bind-n-Seq; molecule type: RNA; sample: in vitro; concentration: 365 nM; baseline: no-protein control; direction: higher = stronger binding
Target: RNA binding protein fox-1 homolog 2, RRM domain, GST-SBP tag (RBFOX2, Homo sapiens, UniProt O43251-10, residues 100-194)
Setting: natural RNA segment, single round, ends assumed
All sequences stand within: GGGAGUUCUACAGUCCGACGAUC … UGGAAUUCUCGGGUGCCAA
Construct (chain): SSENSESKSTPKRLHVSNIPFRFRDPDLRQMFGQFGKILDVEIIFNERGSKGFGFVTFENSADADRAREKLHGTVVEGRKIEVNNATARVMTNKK
Strand | RBNS enrichment (R)
GAGAAGACAAGAAGAAUAAUGUCAACAGAACAACAUCACUUUGGGCCAAGCAUUUGAACACUUUUUAUAUAAAAUUGUGUGAUGUCUCUUUAUGUCUGCUCUGAGCCUUA | 1.2
AUUGUGAAAGCUCACAGGGGUGUUUUUUGGAAUCAUUUGCUGAGUCAUUUUCUCAAAUCAUAUUCCAUUGUAUCAGUUAACAUAUAGUUUUAAAUGUAUGUAUUAUAAAU | 0.529
GAAGCAGUAACAUUUUUCUCAGUGCACAUGCAAUUUGGGUUUUAGAGAAGAUGGCCACCAGCUGGCUUCCUAGAUAUUUUAAACUUUUGUUCUUUAAUAUGCUGUCCAUG | 0.355
CUCUGUCCCAGGUUUUUAGAUCCCACUGAGCCCAGCUGACUGAAAACAAGGACAGUCAGGGUGAAACUUCUUUUGCCAGAAGUGUGGCCUGAGUUGAAUUUCUGGGAGGA | 0.311
UAAACAUUGGAUUAGGCAGUCAAAAAAACCAAGCAAGCAUAAAAGGUCAAUAAGUUGUAAUCUUGAUAGUAAAGGUGGAAAACUUAUUAUAAAUGGAAAGAAAGUUUUAU | 0.971
GCCUUUCCCUUCUUUGAUCCCCUCCCUUCCAUUGUUCAUUCAUGAAGAGUUUUGUUAGAGACAAGCAAUCUGUAAUCCCUCACCUGAAGACCGCAGACUGCAGCUCUGUC | 0.758
UUCACUCGCUUCGUCCUAGAUAGUUUAAAUGGGAAUCGGAUCCCCUGGUUGAGAGCUAAGACAACCACCUACCAGUGCCCAUGUCCCUUCCAGCUCACCUUGAGCAGCCU | 0.224
UUUUUUUUAGAGACAGGAUCUUGCUAUGUUGCCCAGGCUAGAGAGCAGUGGCUUUUCACAGACAAAGUCAUAAUGCCCUGCAGUCUUGGGCUCAAGCGAUUCUCUCUUCC | 0.291

Sample 2 — method: RNA Bind-n-Seq; molecule type: RNA; sample: in vitro; concentration: 200 nM; setting: whole 134-nt RNA, ends assumed; with: 150 mM LiCl; baseline: input library; direction: higher = stronger binding; each molecule: 7-deaza-guanosine replaces G
Target: Ras GTPase-activating protein-binding protein 1, full length (G3BP1, Homo sapiens, UniProt Q13283)
UniProt Q13283, sequence (whole entry, looked up): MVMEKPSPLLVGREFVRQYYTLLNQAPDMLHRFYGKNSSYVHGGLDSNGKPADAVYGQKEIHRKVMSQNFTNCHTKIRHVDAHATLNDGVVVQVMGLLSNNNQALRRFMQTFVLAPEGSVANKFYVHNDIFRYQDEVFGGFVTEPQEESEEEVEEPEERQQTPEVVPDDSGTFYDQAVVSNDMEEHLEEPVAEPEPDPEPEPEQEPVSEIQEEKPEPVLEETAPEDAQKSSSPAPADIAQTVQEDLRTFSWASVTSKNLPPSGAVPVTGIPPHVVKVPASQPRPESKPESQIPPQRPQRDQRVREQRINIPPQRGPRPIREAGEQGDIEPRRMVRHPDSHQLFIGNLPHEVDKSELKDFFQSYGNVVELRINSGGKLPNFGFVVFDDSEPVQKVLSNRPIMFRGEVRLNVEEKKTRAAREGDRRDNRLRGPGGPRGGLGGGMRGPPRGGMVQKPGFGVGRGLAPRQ
All sequences stand within: GGGAGUUCUACAGUCCGACGAUC … UGGAAUUCUCGGGUGUCAAGG
Strand | log2 enrichment
UGGAGCCCAACCUGUGCCGCUCAGUCCUCAUUGCCAACACGGUCCGGCAGAUCCAAGAGGAGAUGACGCAGGAUGGGACGUGGCGCACAG | -2.04
CAAGUCCUGUGCUACACAUCGUAUGUACCGAAUCGGUUUUUGGAAAGGUUUUUGGAAAGUAUUAUGUUACGCCGUUCGGAUCUGCACUUC | -1.36
UGGGAGGUGGAUUUUGUUUAUUUUUUUAGCUCAUUUCCAGGGGUGGGGAUUUUUUUUUAAUAUGUGUCAUGAAUAAAGUUGUUUUUGAAA | -0.182
UCCUGUGCUACACAUCGUAUGUACCGAAUCGGGUUUUUGGGAAAAAGGGUUUUUUUGGGAAAGUAUUAUGUUACGCCGUUCGGAUCUGCA | -1.45
CUCAAGUCCUGUGCUACACAUCGUAUGUACCGAAUCGGGUGGGAAAGGGAGGGAAAGUAUUAUGUUACGCCGUUCGGAUCUGCACUUCCA | 0.502
CACAGACAACACGCACCCACACAGACACAGAGGGAAGGGGUUGGGAUGGGGACAGGGUGCACAGCAGGGCGGGGUAGGACCCCAGCCGCU | -0.903
GCGGGAAGUAAAAACAAAUGGAAAUGCUUCGGAUAGUGGCAGGGGUGGGGGUUGCUAAGGAAAGGGUGGGAUGGGAGUGGGUAAAGAGUU | -0.224
UCCUGUGCUACACAUCGUAUGUACCGAAUCGGCCCCCCGGGCCCCCCGGGGCCCCCCGGAAAGUAUUAUGUUACGCCGUUCGGAUCUGCA | -0.587

Sample 3 — method: DHFR PCA, deep sequencing; sample: yeast; with: (+)-ABA 0 µM; baseline: wild-type fitted maximum; direction: higher = stronger binding
Target: ABI1, truncated, D143A, DHFR fusion (Arabidopsis thaliana)
Setting: methotrexate growth selection, single substitutions
Starting sequence: PYL1, truncated, DHFR fusion (Arabidopsis thaliana); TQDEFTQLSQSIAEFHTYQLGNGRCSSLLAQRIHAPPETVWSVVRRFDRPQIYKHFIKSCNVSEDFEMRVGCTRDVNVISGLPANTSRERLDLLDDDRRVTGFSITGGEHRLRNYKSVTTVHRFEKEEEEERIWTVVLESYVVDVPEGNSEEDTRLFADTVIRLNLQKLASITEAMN; partner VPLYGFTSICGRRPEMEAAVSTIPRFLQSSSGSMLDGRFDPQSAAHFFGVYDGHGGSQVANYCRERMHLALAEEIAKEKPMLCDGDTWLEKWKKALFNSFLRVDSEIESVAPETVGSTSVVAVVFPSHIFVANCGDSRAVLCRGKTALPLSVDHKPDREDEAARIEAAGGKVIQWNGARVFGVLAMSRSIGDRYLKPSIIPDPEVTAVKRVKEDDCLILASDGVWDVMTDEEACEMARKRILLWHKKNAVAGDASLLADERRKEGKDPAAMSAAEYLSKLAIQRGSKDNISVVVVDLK
Change | relative binding score [%]
A30Q | 6.57
D65F | -5.89
M68G | -1.97
I162H | 7.29
A13Q | 35.2
S80W | 52.8
C72L | -0.659
L112F | 9.04
E67Y | -3.54
P83H | 17
V70K | 9.61
P146W | -2.13
L29Y | -1.61
T1R | 21.4
V100K | -2.85
S117P | 5.54
L91D | 1.44
P37K | -0.379
K116D | -1.37
V145C | -12.4
I57D | 0.668
Q10F | 1.72
V142W | -8.7
L169N | -5.22

Sample 4 — method: protein-binding microarray; molecule type: hairpin DNA; sample: in vitro; concentration: not given; baseline: not given; direction: higher = stronger binding
Target: Hepatocyte nuclear factor 3-beta, forkhead domain (FOXA2, Homo sapiens, UniProt Q9Y261, residues 142-269)
Setting: whole hairpin DNA, median over replicate spots
Residues (chain): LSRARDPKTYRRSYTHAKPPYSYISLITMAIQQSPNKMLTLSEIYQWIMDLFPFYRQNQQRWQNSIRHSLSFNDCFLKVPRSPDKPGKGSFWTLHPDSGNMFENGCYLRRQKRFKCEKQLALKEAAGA
Strand | median fluorescence [a.u.]
GAGGCCATGTAACCAGCGCCTCCTGGCGCTGGTTACATGGCCTCACACTC | 3320
GAGGCCATGCAAACAACGCCTCCTGGCGTTGTTTGCATGGCCTCACACTC (5mC at 36) | 3730
GAGGCCATGCATACAACGCCTCCTGGCGTTGTATGCATGGCCTCACACTC | 3280
GAGGCCATGTAAACACGGCCTCCTGGCCGTGTTTACATGGCCTCACACTC (5mC at 28) | 3990
GAGGCCATGTAAACACGGCCTCCTGGCCGTGTTTACATGGCCTCACACTC | 3840
GAGGCCATGTACGCAACGCCTCCTGGCGTTGCGTACATGGCCTCACACTC (5mC at 12 32) | 3570
GAGGCCAGGTAACCAACGCCTCCTGGCGTTGGTTACCTGGCCTCACACTC | 3440
GAGGCCATGTAACCCACGCCTCCTGGCGTGGGTTACATGGCCTCACACTC (5mC at 15) | 3150
GAGGCCATGTAAACAAGGCCTCCTGGCCTTGTTTACATGGCCTCACACTC | 3970
GAGGCCATGTAAACACCGCCTCCTGGCGGTGTTTACATGGCCTCACACTC (5mC at 16) | 3960
GAGGCCATGTTACCAACGCCTCCTGGCGTTGGTAACATGGCCTCACACTC | 3000
GAGGCCCGGCAAACAACGCCTCCTGGCGTTGTTTGCCGGGCCTCACACTC | 3760
GAGGCCATGCGAACAACGCCTCCTGGCGTTGTTCGCATGGCCTCACACTC (5mC at 10) | 3360
GAGGCCATGTCACCAACGCCTCCTGGCGTTGGTGACATGGCCTCACACTC (5mC at 11) | 3290
GAGGCCATGCAAACAGCGCCTCCTGGCGCTGTTTGCATGGCCTCACACTC | 3580
GAGGCCATGTAACCCACGCCTCCTGGCGTGGGTTACATGGCCTCACACTC | 3180
GAGGCCATGCAAACCACGCCTCCTGGCGTGGTTTGCATGGCCTCACACTC (5mC at 15) | 3380
GAGGCCATGTAAACGACGCCTCCTGGCGTCGTTTACATGGCCTCACACTC (5mC at 14) | 3380
GAGGCCTTGTAACCAACGCCTCCTGGCGTTGGTTACAAGGCCTCACACTC | 2760
GAGGCCATACAAACAACGCCTCCTGGCGTTGTTTGTATGGCCTCACACTC | 3380
GAGGCCATGTAACCAATGCCTCCTGGCATTGGTTACATGGCCTCACACTC | 3230
GAGGCCATGCAAACAACGCCTCCTGGCGTTGTTTGCATGGCCTCACACTC | 3720

Excerpt of the above (sample 3):
Change | relative binding score [%]
S117P | 5.54
L91D | 1.44
P37K | -0.379
K116D | -1.37
V145C | -12.4
I57D | 0.668
Q10F | 1.72
